Earlier results that unrelated publications cite.
Values joined by “and” are separate records of one study, mostly repeats; a detail may differ. ± marks the error that the study gave.
CDK1: Cyclin-dependent kinase 1 (CDK1, Homo sapiens, UniProt P06493)

The chains behind the UniProt entries cited, without tags or fusion partners. Where a name states a change or a piece, a line headed by the entry shows the natural chain unless it says otherwise. Residues count along the entry.
UniProt P06493, whole entry: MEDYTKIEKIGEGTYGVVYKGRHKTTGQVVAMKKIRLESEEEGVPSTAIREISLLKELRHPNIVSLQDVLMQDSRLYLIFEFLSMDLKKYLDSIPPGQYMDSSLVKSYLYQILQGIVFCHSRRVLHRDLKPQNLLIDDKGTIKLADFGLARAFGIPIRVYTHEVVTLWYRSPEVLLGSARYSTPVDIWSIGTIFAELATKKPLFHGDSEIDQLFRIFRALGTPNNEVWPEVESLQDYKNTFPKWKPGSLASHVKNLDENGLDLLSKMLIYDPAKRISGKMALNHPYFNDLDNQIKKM
UniProt Q92831, 723-827 limits assumed: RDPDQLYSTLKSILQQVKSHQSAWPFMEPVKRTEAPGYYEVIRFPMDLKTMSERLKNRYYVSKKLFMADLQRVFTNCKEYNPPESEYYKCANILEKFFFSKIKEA
UniProt Q01727, whole entry: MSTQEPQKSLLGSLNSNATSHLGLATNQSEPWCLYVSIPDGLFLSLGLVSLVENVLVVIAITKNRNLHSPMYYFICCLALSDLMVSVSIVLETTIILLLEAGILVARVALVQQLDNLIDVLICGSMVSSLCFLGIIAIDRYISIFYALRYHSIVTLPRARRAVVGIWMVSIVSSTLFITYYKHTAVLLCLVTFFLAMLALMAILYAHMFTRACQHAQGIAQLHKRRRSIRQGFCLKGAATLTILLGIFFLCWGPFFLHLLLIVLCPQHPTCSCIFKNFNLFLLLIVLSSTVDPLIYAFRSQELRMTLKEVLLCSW
UniProt O15392, whole entry: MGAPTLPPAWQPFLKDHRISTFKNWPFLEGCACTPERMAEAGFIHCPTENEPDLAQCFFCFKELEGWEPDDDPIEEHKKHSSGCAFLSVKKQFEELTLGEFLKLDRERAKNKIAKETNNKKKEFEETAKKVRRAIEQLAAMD
UniProt Q9Y653, whole entry, looked up, stated change not applied: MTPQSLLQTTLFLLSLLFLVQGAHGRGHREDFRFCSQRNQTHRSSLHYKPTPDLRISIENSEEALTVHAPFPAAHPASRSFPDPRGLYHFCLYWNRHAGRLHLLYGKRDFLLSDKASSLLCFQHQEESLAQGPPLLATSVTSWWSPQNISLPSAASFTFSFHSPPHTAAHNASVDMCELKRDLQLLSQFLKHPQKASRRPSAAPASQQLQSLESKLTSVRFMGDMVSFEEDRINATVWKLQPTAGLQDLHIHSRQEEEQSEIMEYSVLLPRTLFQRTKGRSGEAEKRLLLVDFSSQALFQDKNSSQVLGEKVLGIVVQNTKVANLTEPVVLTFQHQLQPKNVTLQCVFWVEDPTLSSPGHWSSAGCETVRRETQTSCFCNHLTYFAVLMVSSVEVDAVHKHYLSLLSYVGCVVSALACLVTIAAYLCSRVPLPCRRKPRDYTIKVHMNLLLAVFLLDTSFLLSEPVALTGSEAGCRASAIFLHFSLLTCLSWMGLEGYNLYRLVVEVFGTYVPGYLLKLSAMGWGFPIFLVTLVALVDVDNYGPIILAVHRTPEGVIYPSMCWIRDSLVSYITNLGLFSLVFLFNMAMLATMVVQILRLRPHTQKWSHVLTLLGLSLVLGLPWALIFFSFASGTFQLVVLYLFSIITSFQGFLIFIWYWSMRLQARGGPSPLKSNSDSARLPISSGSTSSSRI
UniProt P10747, whole entry, looked up: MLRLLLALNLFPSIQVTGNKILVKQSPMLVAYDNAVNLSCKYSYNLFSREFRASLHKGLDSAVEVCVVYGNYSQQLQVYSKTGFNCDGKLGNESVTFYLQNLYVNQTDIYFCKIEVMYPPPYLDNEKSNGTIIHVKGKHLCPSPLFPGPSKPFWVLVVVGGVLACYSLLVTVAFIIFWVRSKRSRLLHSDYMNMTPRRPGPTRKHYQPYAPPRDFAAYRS
UniProt Q9UBN7, whole entry: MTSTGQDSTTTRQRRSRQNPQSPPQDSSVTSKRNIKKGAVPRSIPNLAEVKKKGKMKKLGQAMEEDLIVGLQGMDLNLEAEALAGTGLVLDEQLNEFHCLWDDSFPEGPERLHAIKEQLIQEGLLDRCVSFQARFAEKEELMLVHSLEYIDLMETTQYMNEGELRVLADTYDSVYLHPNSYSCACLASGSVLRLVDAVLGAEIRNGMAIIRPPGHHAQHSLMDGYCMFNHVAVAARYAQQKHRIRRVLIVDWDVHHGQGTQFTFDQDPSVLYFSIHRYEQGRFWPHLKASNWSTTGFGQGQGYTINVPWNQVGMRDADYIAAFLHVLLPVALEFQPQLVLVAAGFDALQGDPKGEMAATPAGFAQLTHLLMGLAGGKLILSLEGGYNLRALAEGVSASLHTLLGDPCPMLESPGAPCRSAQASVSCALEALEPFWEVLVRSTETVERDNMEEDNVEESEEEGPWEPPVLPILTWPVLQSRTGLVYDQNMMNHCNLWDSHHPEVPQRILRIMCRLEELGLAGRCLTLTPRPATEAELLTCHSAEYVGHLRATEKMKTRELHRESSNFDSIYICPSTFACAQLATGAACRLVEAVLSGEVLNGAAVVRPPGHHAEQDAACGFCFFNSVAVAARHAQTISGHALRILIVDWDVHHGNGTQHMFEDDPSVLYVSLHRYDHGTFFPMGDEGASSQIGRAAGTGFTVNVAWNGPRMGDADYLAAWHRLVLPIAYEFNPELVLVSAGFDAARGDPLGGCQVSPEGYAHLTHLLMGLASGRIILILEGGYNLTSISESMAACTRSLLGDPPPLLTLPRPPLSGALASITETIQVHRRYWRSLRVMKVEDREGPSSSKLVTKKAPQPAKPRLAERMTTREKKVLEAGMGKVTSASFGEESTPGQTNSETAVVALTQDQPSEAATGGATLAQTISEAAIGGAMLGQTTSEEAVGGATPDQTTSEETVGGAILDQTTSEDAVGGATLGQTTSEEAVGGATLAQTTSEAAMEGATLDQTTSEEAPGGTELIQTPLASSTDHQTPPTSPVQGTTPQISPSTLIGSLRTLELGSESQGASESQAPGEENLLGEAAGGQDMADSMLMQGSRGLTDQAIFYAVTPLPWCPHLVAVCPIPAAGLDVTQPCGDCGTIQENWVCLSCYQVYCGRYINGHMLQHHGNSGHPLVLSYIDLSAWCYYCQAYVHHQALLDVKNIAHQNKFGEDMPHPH
UniProt P22756, 31-920 isoform 4 limits assumed: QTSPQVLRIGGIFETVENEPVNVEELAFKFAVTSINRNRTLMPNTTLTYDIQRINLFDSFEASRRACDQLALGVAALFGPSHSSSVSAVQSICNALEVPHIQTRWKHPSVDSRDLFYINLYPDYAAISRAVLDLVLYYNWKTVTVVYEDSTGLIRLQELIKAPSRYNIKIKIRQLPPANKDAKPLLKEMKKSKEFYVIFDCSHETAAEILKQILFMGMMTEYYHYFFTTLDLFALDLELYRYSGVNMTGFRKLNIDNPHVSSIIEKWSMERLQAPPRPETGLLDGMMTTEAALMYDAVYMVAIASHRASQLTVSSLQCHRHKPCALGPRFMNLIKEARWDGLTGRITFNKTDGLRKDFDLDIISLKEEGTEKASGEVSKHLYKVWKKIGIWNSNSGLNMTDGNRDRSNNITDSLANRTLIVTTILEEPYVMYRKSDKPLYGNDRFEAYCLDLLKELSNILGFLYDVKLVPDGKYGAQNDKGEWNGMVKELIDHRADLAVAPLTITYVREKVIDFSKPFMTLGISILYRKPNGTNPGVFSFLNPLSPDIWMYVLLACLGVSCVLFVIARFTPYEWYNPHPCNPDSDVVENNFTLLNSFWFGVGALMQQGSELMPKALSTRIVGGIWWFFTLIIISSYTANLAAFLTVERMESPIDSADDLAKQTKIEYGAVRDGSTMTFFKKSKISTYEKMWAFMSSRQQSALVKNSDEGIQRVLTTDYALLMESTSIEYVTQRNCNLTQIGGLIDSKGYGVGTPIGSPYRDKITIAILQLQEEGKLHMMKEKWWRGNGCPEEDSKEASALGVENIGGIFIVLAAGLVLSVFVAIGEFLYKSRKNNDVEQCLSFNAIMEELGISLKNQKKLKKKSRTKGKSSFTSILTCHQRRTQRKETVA
UniProt Q9UQL6, whole entry: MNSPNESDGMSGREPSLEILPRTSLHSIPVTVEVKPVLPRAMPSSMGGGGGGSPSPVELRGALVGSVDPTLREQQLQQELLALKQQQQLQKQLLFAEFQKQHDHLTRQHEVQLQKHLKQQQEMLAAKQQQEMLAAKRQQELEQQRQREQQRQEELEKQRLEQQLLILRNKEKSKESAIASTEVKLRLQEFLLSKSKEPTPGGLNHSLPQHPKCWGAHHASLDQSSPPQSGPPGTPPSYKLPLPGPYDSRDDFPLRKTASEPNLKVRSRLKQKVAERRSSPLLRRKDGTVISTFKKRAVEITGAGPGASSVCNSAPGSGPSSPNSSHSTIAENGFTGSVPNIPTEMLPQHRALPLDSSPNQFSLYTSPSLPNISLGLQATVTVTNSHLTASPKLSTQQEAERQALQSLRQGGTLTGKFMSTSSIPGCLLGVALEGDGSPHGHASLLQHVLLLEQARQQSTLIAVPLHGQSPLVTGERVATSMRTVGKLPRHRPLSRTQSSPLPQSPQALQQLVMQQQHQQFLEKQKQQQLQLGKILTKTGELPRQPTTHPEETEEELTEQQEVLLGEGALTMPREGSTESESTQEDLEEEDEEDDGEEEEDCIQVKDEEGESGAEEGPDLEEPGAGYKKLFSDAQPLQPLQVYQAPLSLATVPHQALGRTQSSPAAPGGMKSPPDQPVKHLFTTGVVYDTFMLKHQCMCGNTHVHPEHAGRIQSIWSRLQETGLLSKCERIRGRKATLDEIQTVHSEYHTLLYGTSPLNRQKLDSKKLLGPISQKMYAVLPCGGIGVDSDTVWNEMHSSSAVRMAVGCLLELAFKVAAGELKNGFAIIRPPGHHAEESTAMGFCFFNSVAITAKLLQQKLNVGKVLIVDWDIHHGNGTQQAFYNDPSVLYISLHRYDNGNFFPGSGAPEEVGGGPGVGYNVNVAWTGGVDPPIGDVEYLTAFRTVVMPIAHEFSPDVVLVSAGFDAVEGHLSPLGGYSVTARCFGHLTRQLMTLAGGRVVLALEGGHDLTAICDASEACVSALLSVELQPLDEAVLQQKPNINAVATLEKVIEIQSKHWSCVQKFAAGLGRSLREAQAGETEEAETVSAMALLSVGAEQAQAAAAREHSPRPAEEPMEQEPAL
UniProt P25090, whole entry: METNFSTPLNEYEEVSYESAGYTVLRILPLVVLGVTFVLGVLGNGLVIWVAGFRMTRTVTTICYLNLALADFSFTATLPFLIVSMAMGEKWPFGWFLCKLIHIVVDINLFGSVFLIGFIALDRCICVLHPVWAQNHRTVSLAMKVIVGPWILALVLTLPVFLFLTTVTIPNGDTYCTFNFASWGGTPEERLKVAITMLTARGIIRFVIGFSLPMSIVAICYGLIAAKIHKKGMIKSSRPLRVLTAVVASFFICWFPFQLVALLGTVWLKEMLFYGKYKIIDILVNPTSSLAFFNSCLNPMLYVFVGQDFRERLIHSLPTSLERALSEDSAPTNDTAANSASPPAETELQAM
UniProt Q05397, whole entry, looked up: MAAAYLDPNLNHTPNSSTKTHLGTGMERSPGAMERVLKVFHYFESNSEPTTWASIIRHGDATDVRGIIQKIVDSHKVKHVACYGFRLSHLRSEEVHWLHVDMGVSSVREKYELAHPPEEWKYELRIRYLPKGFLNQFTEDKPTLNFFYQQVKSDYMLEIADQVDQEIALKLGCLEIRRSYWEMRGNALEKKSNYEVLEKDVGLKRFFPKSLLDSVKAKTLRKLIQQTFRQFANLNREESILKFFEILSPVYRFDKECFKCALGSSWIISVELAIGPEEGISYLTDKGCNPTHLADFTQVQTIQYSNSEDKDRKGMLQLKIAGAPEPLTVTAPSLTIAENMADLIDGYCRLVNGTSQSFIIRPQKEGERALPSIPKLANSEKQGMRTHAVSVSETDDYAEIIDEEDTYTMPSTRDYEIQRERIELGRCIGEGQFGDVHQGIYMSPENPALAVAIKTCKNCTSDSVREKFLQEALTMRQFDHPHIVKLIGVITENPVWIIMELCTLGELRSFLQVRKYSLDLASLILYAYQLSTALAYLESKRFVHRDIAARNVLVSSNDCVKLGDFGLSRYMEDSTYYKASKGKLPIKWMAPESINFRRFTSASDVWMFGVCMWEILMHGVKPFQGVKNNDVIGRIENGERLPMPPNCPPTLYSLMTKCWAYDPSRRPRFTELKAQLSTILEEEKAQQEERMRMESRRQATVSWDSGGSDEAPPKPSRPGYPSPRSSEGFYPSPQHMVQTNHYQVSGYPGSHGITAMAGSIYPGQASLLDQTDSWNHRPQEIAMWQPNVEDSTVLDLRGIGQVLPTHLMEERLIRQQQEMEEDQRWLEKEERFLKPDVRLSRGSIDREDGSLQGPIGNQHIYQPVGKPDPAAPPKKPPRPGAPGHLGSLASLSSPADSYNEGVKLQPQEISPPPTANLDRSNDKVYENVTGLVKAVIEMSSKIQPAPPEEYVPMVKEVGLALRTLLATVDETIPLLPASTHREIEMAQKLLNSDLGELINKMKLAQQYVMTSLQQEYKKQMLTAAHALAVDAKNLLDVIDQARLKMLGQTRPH

Cc1cc(C)cc(Nc2nccc(-c3c(-c4ccc(F)cc4)ncn3C3CCNCC3)n2)c1
inhibition (KAT2B (Homo sapiens, UniProt Q92831); concentration not given): > 35%

C[C@@H]1NC(=O)[C@H](CC(N)=O)NC(=O)[C@H](Cc2c[nH]c3ccccc23)NC(=O)[C@H](CCCNC(=N)N)NC(=O)[C@@H](Cc2ccccc2)NC(=O)[C@H](Cc2c[nH]cn2)NC(=O)[C@@H](NC(=O)[C@@H](N)Cc2ccc(O)cc2)CSSC[C@@H](C(=O)N[C@@H](Cc2ccc(O)cc2)C(N)=O)NC(=O)[C@H](Cc2ccccc2)NC1=O
EC50 (Mc1r (Mus musculus, UniProt Q01727); cAMP, agonist): 0.0004 µM

C[C@H](N)C(=O)N[C@@H](CCCNC(=N)N)C(=O)N[C@H](C(=O)N[C@@H](CCCCN)C(=O)N[C@@H](CCC(N)=O)C(=O)N[C@H](C(=O)N[C@@H](C)C(=O)N[C@@H](CCCNC(=N)N)C(=O)N[C@@H](CCCCN)C(=O)N[C@@H](CO)C(=O)N[C@H](C(=O)NCC(=O)O)[C@@H](C)O)[C@@H](C)O)[C@@H](C)OP(=O)(O)O
Kd (BIRC5 (Homo sapiens, UniProt O15392); ITC; pH 7.2, 25 °C): 2.31 ± 0.08 µM

CSCC[C@H](NC(=O)[C@H](CC(C)C)NC(=O)[C@@H](NC(=O)[C@H](C)NC(=O)[C@H](Cc1ccccc1)NC(=O)[C@H](Cc1ccc(O)cc1)NC(=O)[C@@H](N)[C@@H](C)O)C(C)C)C(N)=O
EC50 (ADGRG1 (Homo sapiens, UniProt Q9Y653); agonist): 35 µM

CCC(C)NC(=O)CSc1nnc(Nc2ccc(C(C)C)cc2)s1 (stereo not shown)
Kd (CD28 (Homo sapiens, UniProt P10747); binding, microscale thermophoresis): 52.5 ± 18.7 µM

CC(=O)NCCCC[C@H](NC(=O)CNC(=O)[C@H](CC(C)C)NC(C)=O)C(=O)Nc1ccc2c(C)cc(=O)oc2c1
Km (HDAC6 (Homo sapiens, UniProt Q9UBN7); substrate): 16 µM

CCC[C@@H]1CN[C@H](C(=O)O)[C@H]1c1cccc(C(=O)O)c1
Ki (Glutamate receptor ionotropic, kainate 1 (Rattus norvegicus, UniProt P22756); binding, radioligand displacement; cloned homomeric receptor): 0.62 µM

CC(=O)N[C@@H](CC(C)C)C(=O)NCC(=O)N[C@@H](CCCCNC(=O)C(F)(F)F)C(=O)Nc1ccc2c(C)cc(=O)oc2c1
Km (HDAC5 (Homo sapiens, UniProt Q9UQL6); substrate): 59 µM

CS(=O)(=O)N(CCCN1CCCCC1)c1ccc(Nc2ncc3cnn(C4CCCCCC4)c3n2)cc1
IC50 (CDK1; kinase activity, inhibitor): 0.006 µM

CNC(=O)[C@@]12C[C@@H]1[C@@H](n1cnc3c(NCCc4ccc(OC)c(OC)c4)nc(C#Cc4ccc(Cl)s4)nc31)[C@H](O)[C@@H]2O
IC50 (HepG2; cytotoxicity): 36.9 µM

COc1cc(Nc2ccnc3ccc(Br)cc23)cc(OC)c1OC
Kd (ACVR1; binding): 0.98 µM

CS(=O)(=O)N(CCN)c1ccc(Nc2ncc3cnn(C4CCCCCC4)c3n2)cn1
IC50 (CDK1; kinase activity, inhibitor): 0.003 µM

C/C=C/Cn1c(Cc2cc(OC)c(OC)c(OC)c2)nc2c(N)ncnc21
selectivity ratio (Hsp90α and Hsp90β; binding, fluorescence polarization competition; relative to: IC50 Hsp90β over IC50 Hsp90α): 4.8 fold and ~5 fold

CCN1CCC(CCc2cnc(Nc3cc(-c4cc(F)c5nc(C)n(C(C)C)c5c4)ncn3)cn2)CC1
IC50 (CDK1; kinase activity, inhibitor): 0.134 µM

Cc1cccc(C2NC(=O)c3c(Cl)cccc3N2)c1 (racemic)
IC50 (LNCaP; cell growth; PBRM1-dependent): ~9 µM

O=C(O)c1cc([C@H]2CCN[C@@H]2C(=O)O)ccc1Cl
IC50 (kainate receptor (rat); binding, radioligand binding; rat synaptosomes; added: [3H]kainate): > 100 µM

CCCC[C@@H](C(=O)Nc1ccc(Br)cc1)n1nc(C)cc(Cc2cccc(OC)c2)c1=O (racemic)
EC50 (FPR2 (Homo sapiens, UniProt P25090); agonist; HL-60 expressing FPR2): 7 µM

O=C(O)c1cc(O)cc([C@H]2CCN[C@@H]2C(=O)O)c1
Ki (NMDA receptor (rat); binding, radioligand binding; rat synaptosomes; added: [3H]CGP39653): 4.1 µM

O=C(O)c1ccc(-c2cn[nH]c2)nc1
Kd (PTK2 (Homo sapiens, UniProt Q05397); surface plasmon resonance): 1300 µM

Repeated from above:
CCC(C)NC(=O)CSc1nnc(Nc2ccc(C(C)C)cc2)s1 (stereo not shown)
Kd (CD28 (Homo sapiens, UniProt P10747); binding, microscale thermophoresis): 52.5 ± 18.7 µM
